{"data": "Published values gathered from unrelated publications", "note": "Compare with care: the assays were run in different laboratories."}
{"SMILES": "O=C1CCC(N2Cc3cc(C(=O)O)c(F)cc3C2=O)C(=O)N1 (stereo not shown)", "system": "male CD-1 mouse, plasma", "conditions": "intravenous, 1 mg/kg, 4 h", "endpoint": "concentration", "result": "28.4 ng/mL"}
{"SMILES": "Cc1ncsc1-c1ccc(C(C)NC(=O)C2CC(O)CN2C(=O)C(NC(=O)CCCCCCCCCCN2CCCC(Nc3ncc(Cl)c(Nc4ccccc4S(=O)(=O)C(C)C)n3)C2)C(C)(C)C)cc1 (stereo not shown)", "target or system": "22Rv1", "test": "RNA-seq, refers to: PFKFB3 mRNA", "conditions": "concentration not given", "how to read": "baseline: DMSO", "endpoint": "log2 fold change", "result": -1.37}
{"SMILES": "CC(C)n1ncc2c(C(=O)NC[C@@H](C)N)cc(C3CC3)nc21", "system": "female BALB/c mouse, plasma", "conditions": "intraperitoneal, 30 mg/kg, 4 h", "endpoint": "concentration", "result": "828 ng/mL"}
{"SMILES": "CC(C)(O)c1ccc(N2Cc3c(ccnc3-c3ccc(F)cc3OCC(F)(F)F)C2=O)cc1", "system": "male C57BL/6 mouse, brain", "conditions": "oral, 3 mg/kg, 6 h", "endpoint": "concentration", "result": "229 ng/g"}
{"SMILES": "[2H]C([2H])(N)C([2H])([2H])NC(=O)c1cc(C2CC2)nc2c1cnn2C(C)C", "system": "female BALB/c mouse, plasma", "conditions": "intraperitoneal, 50 mg/kg, 1 h", "endpoint": "concentration", "result": "2310 ng/mL"}
{"SMILES": "C=CC(=O)N1CC2C(=O)N(CCN(C)C)c3c(c4cc(Cl)c(-c5c(O)cccc5F)nc4n(-c4c(C)ccnc4C(C)C)c3=O)N2CC1C (stereo not shown)", "system": "mouse, CSF", "conditions": "oral, 30 mg/kg, 4 h", "endpoint": "concentration", "result": "1.06 ng/mL"}
{"SMILES": "COc1cccc(C2CC(c3ccccc3Cl)Nc3nc(N)nn32)c1 (stereo not shown)", "system": "male CD-1 mouse, brain", "conditions": "intraperitoneal, 20 mg/kg, 3 h, single dose", "endpoint": "concentration", "result": "4 µM"}
{"SMILES": "Cc1ncsc1-c1ccc(CNC(=O)[C@@H]2C[C@@H](O)CN2C(=O)[C@@H](NC(=O)COCC(C)(COCCOCCOCCNC(=O)C[C@@H]2N=C(c3ccc(Cl)cc3)c3c(sc(C)c3C)-n3c(C)nnc32)COCCOCCOCCNC(=O)C[C@@H]2N=C(c3ccc(Cl)cc3)c3c(sc(C)c3C)-n3c(C)nnc32)C(C)(C)C)cc1", "system": "male C57BL/6 mouse, plasma", "conditions": "intravenous, 5 mg/kg, 30 min, single dose", "endpoint": "concentration", "result": "8710 ng/mL"}
{"SMILES": "CCN(CC)CC#CCNc1ccnc2cc(Cl)ccc12", "target or system": "Salmonella typhimurium", "test": "mini-Ames test", "system": "TA100", "conditions": "62.5 µg/well, with rat liver S9", "endpoint": "mean revertants", "result": "17 revertants/well"}
{"SMILES": "CC(C)n1ncc2c(C(=O)NCCN(C)C)cc(C3CC3)nc21", "system": "female BALB/c mouse, plasma", "conditions": "intraperitoneal, 50 mg/kg, 3 h", "endpoint": "concentration", "result": "89.6 ng/mL"}
{"SMILES": "CC[C@H](C)[C@@H]1NC(=O)[C@H](Cc2ccc(O)cc2)NC(=O)CCCSC[C@@H](C(=O)N(CC(=O)N[C@@H](CC(C)C)C(=O)NCC(N)=O)Cc2ccc(F)cc2)NC(=O)[C@H](CC(N)=O)NC(=O)[C@H](CCC(N)=O)NC1=O", "test": "LC-MS/MS", "system": "human, urine", "conditions": "intravenous, 20 µg, 2 h", "endpoint": "concentration", "result": "0.151 ng/mL"}
{"SMILES": "COC1CN([C@H]2CC[C@H]([C@@]3(C)Oc4c(Cl)cc(C(=O)NCc5c(SC)cc(C)[nH]c5=O)c(C)c4O3)CC2)C1", "test": "RNA-seq, refers to: SPATA7", "system": "human, whole blood", "conditions": "dose not given, 24 h", "how to read": "baseline: pretreatment baseline", "endpoint": "log2 fold change", "result": 1.14}
{"SMILES": "COc1ccc(Nc2n[nH]c3nc(-c4ccccc4)nc(N)c23)cc1OC", "target or system": "HeLa Ohio", "conditions": "72 h", "endpoint": "CC50", "result": "76.4 µM"}
{"note": "Excerpt of the above:"}
{"SMILES": "CC(C)(O)c1ccc(N2Cc3c(ccnc3-c3ccc(F)cc3OCC(F)(F)F)C2=O)cc1", "system": "male C57BL/6 mouse, brain", "conditions": "oral, 3 mg/kg, 6 h", "endpoint": "concentration", "result": "229 ng/g"}
